# Measured values pooled from the literature.
# Each line is one published result; not all experiments were run side by side. Values joined by “and” are separate records of one study, mostly repeats; a detail may differ. Numbers after ± are the reported error.
Structure (SMILES),test,system,conditions,scale,endpoint,value
CCCCCOc1ccc(-c2cc(-c3ccc(C(=O)N[C@H]4C[C@@H](O)[C@@H](O)NC(=O)[C@@H]5[C@@H](O)[C@@H](C)CN5C(=O)[C@H]([C@H](O)CC(N)=O)NC(=O)[C@H]([C@H](O)[C@@H](O)c5ccc(O)c(OS(=O)(=O)O)c5)NC(=O)[C@@H]5C[C@@H](O)CN5C(=O)[C@H]([C@@H](C)O)NC4=O)cc3)no2)cc1,,human severe hepatic dysfunction,"intravenous, 100 mg single dose",,tolerability,not toxic
CN[C@@](C)(C[18F])C(=O)O,,"SCID mouse SK-OV-3 xenograft, blood","120 min, post injection",,tissue uptake,0.4 ± 0.1 %ID/g
CC1(C)S[C@@H]2[C@H](NC(=O)[C@H](C(=O)O)c3ccsc3)C(=O)N2[C@H]1C(=O)O,,rat plasma,"8000 ng/mL, -20 °C to room temperature, three freeze-thaw cycles",,measured concentration,8080 ± 97 ng/mL
Cc1ccc(Nc2nccc(N(C)c3ccc4c(C)n(C)nc4c3)n2)cc1S(N)(=O)=O,,"patients, plasma","oral, 600 mg, 24 h, with food, geometric mean, added: pantoprazole",,Cmin,29500 ng/mL
CC(C)c1nc(CN(C)C(=O)N[C@H](C(=O)N[C@@H](Cc2ccccc2)C[C@H](O)[C@H](Cc2ccccc2)NC(=O)OCc2cncs2)C(C)C)cs1,,"healthy human volunteers, plasma","oral, dose not given, added: warfarin plus 2D regimen",,AUC(0-24),11700 ng·h/mL
ClC(Cl)(Cl)Cl,,"Sprague-Dawley rat, male, liver","oral, 50 mg/kg, 24 h, single low dose",direction not given,hepatocyte vacuolization score,0
O=C1[O][Pt]2([NH][C@@H]3CCCC[C@H]3[NH]2)[O]C1=O,,human advanced solid tumours,"intravenous, every 2 weeks, added: FOLFOX",,MTD,85 mg/m²
CC[C@H](C)[C@H](NC(=O)[C@H](CCCCN)NC(=O)[C@@H](NC(=O)[C@H](CCC(N)=O)NC(=O)[C@H](CCCNC(=N)N)NC(=O)c1ccc2c(c1)C(=O)OC21c2ccc(O)cc2Oc2cc(O)ccc21)[C@@H](C)CC)C(=O)N[C@@H](Cc1c[nH]c2ccccc12)C(=O)N[C@@H](Cc1ccccc1)C(=O)N[C@@H](CCC(N)=O)C(=O)N[C@@H](CC(N)=O)C(=O)N[C@@H](CCCNC(=N)N)C(=O)N[C@@H](CCCNC(=N)N)C(=O)N[C@@H](CCSC)C(=O)N[C@@H](CCCCN)C(=O)N[C@@H](Cc1c[nH]c2ccccc12)C(=O)N[C@@H](CCCCN)C(=O)N[C@@H](CCCCN)C(=O)O,,excised Sprague-Dawley rat skin,"50 µM, 0 to 5 h, 37 °C, 0.5% DMSO, FAM-labelled",,Papp,1.75 ± 0.25 ×10⁻⁶ cm/s
[123I]c1cncc(OC[C@@H]2CCN2)c1,SPECT,"human, frontal lobe","intravenous bolus plus infusion, 5.2 mCi",reference: tissue over plasma,tissue/plasma ratio,19.9
O=S(=O)(O)Oc1ccc(-c2cccc(Cl)c2)cc1Cl,,"rat Sprague-Dawley male, brain","intravenous, 575 µg/kg, 1 h, total dose 142 µg",,fraction of dose in brain,0.7%
Cc1sc2c(c1C)C(c1ccc(Cl)cc1)=N[C@@H](CC(=O)OC(C)(C)C)c1nnc(C)n1-2,LC-MS,Ringer's solution,"50 ng/mL, time not given, plastic vessel, low-bind vial",,recovery vs nominal,2.03% and 2.96%
CSCC[C@@H]1NC(=O)[C@H](CC(=O)O)NC(=O)CNC(=O)[C@H](CCCNC(=N)N)NC(=O)[C@H](C)NC(=O)[C@H](CCC(=O)O)NC(=O)[C@H](CCCNC(=N)N)NC(=O)[C@@H]2CSSC[C@@H]3NC(=O)[C@H](CO)NC(=O)[C@H]([C@@H](C)O)NC(=O)[C@@H]4CCCN4C(=O)[C@H](C)NC(=O)[C@H](Cc4c[nH]c5ccccc45)NC(=O)[C@H](CC(=O)O)NC(=O)CNC(=O)[C@H](CCCNC(=N)N)NC(=O)CNC(=O)[C@H](CCC(N)=O)NC(=O)[C@@H]4CCCN4C(=O)[C@@H](NC(=O)CNC(=O)C(C)F)CSSC[C@H](NC(=O)CNC(=O)[C@H](C)NC(=O)[C@H](CC(C)C)NC(=O)[C@H](CSSC[C@@H](C(=O)NCC(N)=O)NC(=O)[C@H]([C@@H](C)O)NC(=O)[C@H](CCCNC(=N)N)NC(=O)[C@@H]4CCCN4C1=O)NC(=O)[C@H](CC(=O)O)NC(=O)[C@H](CO)NC(=O)[C@H](CC(=O)O)NC(=O)[C@H](CCC(N)=O)NC(=O)[C@H](CO)NC3=O)C(=O)N[C@@H](C(C)C)C(=O)N2 (stereo partly drawn) [fluorine-18 labelled],,"nude mice U-87 MG xenograft, kidneys","intravenous, 1 h",,tissue uptake,3.02 ± 0.33 %ID/g

# Repeated from above:
Structure (SMILES),test,system,conditions,scale,endpoint,value
CN[C@@](C)(C[18F])C(=O)O,,"SCID mouse SK-OV-3 xenograft, blood","120 min, post injection",,tissue uptake,0.4 ± 0.1 %ID/g
CC1(C)S[C@@H]2[C@H](NC(=O)[C@H](C(=O)O)c3ccsc3)C(=O)N2[C@H]1C(=O)O,,rat plasma,"8000 ng/mL, -20 °C to room temperature, three freeze-thaw cycles",,measured concentration,8080 ± 97 ng/mL
